Published values collected from several papers.
A part holds a random share of what one study measured.

Study 1 — method: protein binding microarray; form: double-stranded DNA, one strand shown; sample: in vitro; tested at: not given; relative to: not given; direction: higher = stronger binding; quantity: E-score
Target: Histone acetyltransferase KAT6A, winged helix 1, GST fusion (KAT6A, Homo sapiens, UniProt Q92794, residues 1-85)
Setting: 8-mer, flanks averaged, mean of 2 arrays, mostly near background
Target sequence (chain): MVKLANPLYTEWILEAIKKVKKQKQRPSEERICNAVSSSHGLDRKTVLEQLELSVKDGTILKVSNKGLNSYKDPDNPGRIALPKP
TGGAATAA: -0.19
CCGCTGGC: 0.264
CACCATGA: 0.11
ACCAATGA: -0.191
CGGTCTAC: 0.267
CATACGGG: 0.359
CATCGATG: -0.161
AACAGCCA: -0.104
GAGCAGCA: -0.0644
GGTCTCGA: -0.0189
AAGTGTAA: -0.109
CCCGAGGG: -0.0305
CATTTTTC: -0.123
CTTCTTTC: -0.186
ATCAGTCG: -0.152
CTTGAGTA: -0.203

Study 2 — method: RNA Bind-n-Seq; form: RNA; sample: in vitro; tested at: not given; relative to: input RNA pool; direction: higher = stronger binding; quantity: bound/input enrichment
Target: RING finger protein unkempt homolog, zinc fingers 1-6, GST-SBP tag (UNK, Homo sapiens, UniProt Q9C0B0, residues 30-357)
Chain of UniProt Q9C0B0 (30-357, looked up): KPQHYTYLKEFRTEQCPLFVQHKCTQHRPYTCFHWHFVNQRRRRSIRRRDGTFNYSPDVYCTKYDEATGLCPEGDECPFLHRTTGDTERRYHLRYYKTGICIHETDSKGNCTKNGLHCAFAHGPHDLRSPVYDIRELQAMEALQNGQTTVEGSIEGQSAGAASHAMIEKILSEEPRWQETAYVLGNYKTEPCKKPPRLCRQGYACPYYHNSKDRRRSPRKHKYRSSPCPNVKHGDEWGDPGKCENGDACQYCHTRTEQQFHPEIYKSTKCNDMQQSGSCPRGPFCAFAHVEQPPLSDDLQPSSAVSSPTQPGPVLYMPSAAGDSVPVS
Setting: RNA with constant flanks, human-mouse chimeric sites, ends assumed
Shared flanks, not repeated: GGGAGUUCUACAGUCCGACGAUC … CAACAGAGGAUUGAGCAUCA
GGCCUGGGACCGUCCUGGCUAGUGCAAAAUAGCGGCAGUGGAGGCUCGAGAGGAAAGUUGUUAGUGGGAGGCAGUGGUAGAGGCCGUCAUGUACGGUCCUUUACUCGAUAGAUGUGUUCU: 0.747 ratio
CUGAGGAAUACCACUGAGAGACCUUAAAAGGAGUCAUUGAGGGCUCUGUUCGUGCAAGAAUAGUCACUGAUCGGGAAACUGGUUCUUCCAAAGGGUUUGGUUUUGUAGACUUUAAUAGUG: 0.873 ratio
GUACUGCAGCAGCAGGGAAAACUGCAGGAAGCACUGAUGCAUUAUAAAGAAGCCAUACGAAUCAGUCCUACCUUUGCUGAUGCCUACUCUAAUAUGGGAAACACUCUAAAGGAGAUGCAG: 0.334 ratio
AAAUUUCCCCUCCUGAGACCUCCUCCGAAAUUGGCAUCUCUUACAGAUGCCUCAUCCCCUGUUAGCGUUUUAGUUUGGACCACCCAGCCUUGGACAAUUCCCGCCAACCAGGCAAUUUGC: 1.2 ratio
AAAGAACUACUGAGGCAAGGCAGCAAAUUUAGGAGAGACAUUUCAACACUAUUAAUAGAGUUAGGAUUCCAAAUUAAAAAGAAAACUAAGACAUUAUACAUCAACAAAGCCAAUAUCUGG: 10 ratio
UACUCAACUUUCUUGCCACAUUUUGAAUUCCAAGACAUUAUUCCUCCAGAUGACUUUCUAACGAGUGAUGAAGAGCAAGAUUUGGUUUUAUUUGGAAGUUUGAGAGGACAAGUUGUUGGA: 0.175 ratio
GGGACUGAUUCAUCCCAAGGACAGGCCACCCCAUUUGGUGUUUGGAAUGAUGACAGUAUGGAAGGGCCUAGUCAAAAUGUUGAAGCUGAGUCAAUUCAGGAUGCCAUGCAUAUGGCAGAG: 0.152 ratio
AGAGAUAAGACAUCCAGAAAUAUGAGAGGCUCCCGGAUGAAUGGGUUGCCUAGCCCCACUCAUAGUGCCCACUGUAGCUUCUACCGAACCAGAACCUUGCAGGCACUGAGUAAUGAGAAG: 0.167 ratio

Study 3 — method: protein-binding microarray; form: double-stranded DNA, one strand shown; sample: in vitro; tested at: 250 nM; setting: 60-bp whole probe; together with: salmon DNA 0.4 mg/ml; relative to: random background probes; direction: higher = stronger binding; quantity: log fluorescence; shared flanks, not repeated: GCCTAGCAC … GTCTTGATTCGCTTGACGCTGCTG
Target: Interferon regulatory factor 7, full length, phosphomimetic (IRF7, Homo sapiens, UniProt Q92985, residues 1-503, S101K/S471D/S472D/S475D/S476D/S477D/S483D/S484D/S487D)
Target sequence (chain): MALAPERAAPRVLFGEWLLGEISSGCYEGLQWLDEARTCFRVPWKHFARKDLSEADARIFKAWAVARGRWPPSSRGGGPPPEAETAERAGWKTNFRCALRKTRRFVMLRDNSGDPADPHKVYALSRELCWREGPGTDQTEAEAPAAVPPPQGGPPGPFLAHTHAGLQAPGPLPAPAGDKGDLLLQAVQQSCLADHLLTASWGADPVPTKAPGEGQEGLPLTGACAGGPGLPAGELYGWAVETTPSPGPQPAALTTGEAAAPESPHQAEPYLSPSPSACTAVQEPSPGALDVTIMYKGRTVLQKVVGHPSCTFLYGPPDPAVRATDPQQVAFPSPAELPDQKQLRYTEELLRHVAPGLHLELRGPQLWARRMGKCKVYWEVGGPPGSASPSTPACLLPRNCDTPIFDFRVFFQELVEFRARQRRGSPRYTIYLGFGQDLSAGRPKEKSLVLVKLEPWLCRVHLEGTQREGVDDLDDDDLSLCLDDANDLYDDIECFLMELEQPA
CTAGATCTCAGACTGGATTAGTGCTAG: 0.509 z-score
TTAGGACTGGGTTTCGGTTAGTGCTAG: 7 z-score
TTAGGTCTCCTTCTCATTTAGTGCTAG: 0.744 z-score
AAATCTAAAAAGTCTCTGGGAGTGCTA: -0.152 z-score
GGGCATTTTTTTATCAATCAGTGCTAG: -0.177 z-score
TCAGGTTCCGGTTTCGGTTAGTGCTAG: 11.2 z-score
GACGAACTGCGGTTTCGAGACGTGCTA: 3.24 z-score
TAATTTTTTAGCTTCTCAATGTGCTAG: -0.0669 z-score
TTAGATTTCGGGTATAGATTAGTGCTA: 0.539 z-score
TCAAGAGTAGTTTTTCAAACTGTGCTA: -0.521 z-score
GACGGATTCGGTTTCGGGACGTGCTAG: 8.73 z-score
TTAAGTTTCGACTATCGGTTAGTGCTA: 6.13 z-score
TCAATGTTCCCTATATAACTGTGCTAG: 1.45 z-score
CGCCCTCTCAACCATCCTGGGGTGCTA: 0.25 z-score
GACGGTTTCCGTTCCCTGACGTGCTAG: 7.34 z-score
TTAGACTCCAGTTTCGATTAGTGCTAG: 9.09 z-score
TCAGTTCTCCCTTTCAGACTGTGCTAG: 1.4 z-score
CCTACCGCCCTTACCGCCGCGTGCTAG: 0.253 z-score
GACCGTTCCGGTTTCGGGACGTGCTAG: 5.43 z-score

Study 4 — method: RNA Bind-n-Seq; form: RNA; sample: in vitro; tested at: 365 nM; relative to: no-protein control; direction: higher = stronger binding; quantity: RBNS enrichment (R)
Target: RNA binding protein fox-1 homolog 2, RRM domain, GST-SBP tag (RBFOX2, Homo sapiens, UniProt O43251-10, residues 100-194)
Setting: natural RNA segment, single round, ends assumed
Shared flanks, not repeated: GGGAGUUCUACAGUCCGACGAUC … UGGAAUUCUCGGGUGCCAA
Construct (chain): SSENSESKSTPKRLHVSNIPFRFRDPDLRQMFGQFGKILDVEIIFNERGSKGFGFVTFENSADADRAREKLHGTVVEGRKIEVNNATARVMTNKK
CUAGCUUCAAAUGAUCCUCUCACCUCGGCCUCCCAAAAUCCUGGGAUUCCAGGCGUCAGCCACUGCUCUCGGCCCUCUUACACCAUUUUGUUUGAUUGUCUAGUCCCUGU: 0.261
CUCCACAUACCUACACCUUGGGUGCAUCACUCCAUUCAUGGCCUCCUGUUACCAACUGCGCAGACAUCACACAAUCCGUGCCAUGUGAUUGAGAAAUGGAAAUGCCACCU: 0.938
GUCCGGCACAGCUGCGGUCACCAAAGCAGGUGCUGGCCCUCGGACCUGAGAGCCCAGCCAGGGCCCAUGUGGUCUGCAAAUGGGAGCGGCUGUUUUUGAACACGGGGUCA: 0.257
CUGUCUACUGACCAAUCAGUGUGGCAUGAGGCCCACGCCACCCAAACCUUUCACUUUCCAAAGAGCUAGCCGUCCUCCACCCAGUACCAUGUCCUAGCCUGUCUGCAUUU: 1.35
CCAAGAGGCCAAACUUCUAGGUGAAGUUUCUAGACACCUUAAUAUGAACAGAGCUAGACCUGAGCCAGUAAACAGUCUAAACCAGAAUAUGCCUUAUUUAUGUAUUCAUG: 0.476
GGAUUUUUAUCCCCACAUAACCAGGGGCCAUCUGAAAGUCAUUUUCUAGCCAGAUCAGCCACUGAGCGGUAAGCAUCAGCGCUCAGCAGAGCCUUCCGAGCAGCAUUUAG: 4.63
CAUGUUUUUCUCACUUAGGUCUCACAAAAGUAUGAUUUUUCUCAAAAGUCCUGUAUUUAUGUAUUUUUUGGAUUCAGUGUGAGGCAUUGAAUUAAAGAUACCGAUUAAAG: 0.541
UUGUUUUGGCAGUUGACAAGAAGUUAAUUUGCUUUAGUAAAAAUCCCUCAUUCCAGCCUUUCUAUAUAAAUAGCUCUUUCUUGCUGUUUUAAUGUGGUGCACACUAUAGC: 0.747

Some of these lines once more (study 1):
CCCGAGGG: -0.0305
TGGAATAA: -0.19
CTTGAGTA: -0.203
CGGTCTAC: 0.267
ATCAGTCG: -0.152
CACCATGA: 0.11
